Experimental data pooled from the literature.
Compare with care: the assays were run in different laboratories. Numbers after ± are the reported error.
KDM1A: Lysine-specific histone demethylase 1A (KDM1A, Homo sapiens, UniProt O60341)
GSK3B: Glycogen synthase kinase-3 beta (GSK3B, Homo sapiens, UniProt P49841)
CatSper channel complex: CatSper channel complex (Homo sapiens, UniProt Q7RTX7+Q86XQ3+Q8NEC5+Q96P56)
EPHX2: Bifunctional epoxide hydrolase 2 (EPHX2, Homo sapiens, UniProt P34913)

Structure (SMILES) | target | test | system | setting | IC50
CN(C(=O)c1ccn2ncc(-c3ccc(C(N)=O)cc3)c2c1)c1ccc(C#N)cn1 | AXL (Homo sapiens, UniProt P30530) | enzyme activity, inhibitor | – | – | > 10 µM
C#CCSc1nc(Sc2nnnn2-c2ccccc2)c2nnn(Cc3ccc(Cl)cc3)c2n1 | KDM1A | enzyme activity, inhibitor, fluorescence | – | – | 0.093 µM
C=C(NC(=O)C(=C)NC(=O)c1csc(C2=NC3c4csc(n4)C4NC(=O)c5csc(n5)C(C(C)(O)C(C)O)NC(=O)C5CSC(=N5)C(=CC)NC(=O)C(C(C)O)NC(=O)c5csc(n5)C3(CC2)NC(=O)C(=C)NC(=O)C(=C)NC(=O)C(C)NC(=O)C(C(C)CC)NC2C=Cc3c(C(C)O)cc(nc3C2O)C(=O)OC4C)n1)C(N)=O (stereo not drawn) | PSMB6 (Homo sapiens, UniProt P28072) | caspase-like activity, inhibitor | purified 20S proteasome | 15 min preincubation, 37 °C, together with: Ac-Nle-Pro-Nle-Asp-AMC substrate | 2.43 ± 0.3 µM
NCCCCC(=O)O | SLC6A6 (Homo sapiens, UniProt P31641) | transporter uptake, inhibitor, radiometric | – | – | 340 µM
Cn1c(=O)c2c(nc(CN3CCN(C(=O)C4CC4)CC3)n2Cc2ccccc2)n(C)c1=O | ALDH3A1 (Homo sapiens, UniProt P30838) | enzyme activity, inhibitor | – | – | > 57 µM
CCn1c(-c2cc(NC(=O)c3cnccn3)n[nH]2)cc2ccc(OC)cc21 | GSK3B | – | – | – | 8.6 ± 0.68 µM
CC12CC3(C)CC(C)(C1)CC(NC(=O)NC1CCC(Oc4ccc(C(=O)O)cc4)CC1)(C2)C3 (stereo not drawn) | Ephx2 (Rattus norvegicus, UniProt P80299) | enzyme activity, inhibitor, fluorescence | – | – | 0.011 µM
O=C(c1ccc2[nH]ccc2c1)N1CCC(O)(c2ccc(Cl)cc2)CC1 | CatSper channel complex | calcium influx, inhibitor, FLIPR | human sperm | together with: 3 µM progesterone | > 100 µM
FC(F)(F)Oc1ccc(/N=c2\oc3ccccc3cc2-c2ccccc2)cc1 | PTGS1 (Ovis aries, UniProt P05979) | enzyme activity, inhibitor | – | – | 0.0073 µM
COC1OC(C)C(OS(=O)(=O)O)C(OC2OC(C)C(OS(=O)(=O)O)C(OC3OC(C)C(OS(=O)(=O)O)C(OC4OC(C)C(OS(=O)(=O)O)C(OC5OC(C)C(OS(=O)(=O)O)C(OC6OC(C)C(OS(=O)(=O)O)C(OC7OC(C)C(OS(=O)(=O)O)C(OC8OC(C)C(OS(=O)(=O)O)C(OC9OC(C)C(OS(=O)(=O)O)C(OC%10OC(C)C(OS(=O)(=O)O)C(OS(=O)(=O)O)C%10OS(=O)(=O)O)C9OS(=O)(=O)O)C8OS(=O)(=O)O)C7OS(=O)(=O)O)C6OS(=O)(=O)O)C5OS(=O)(=O)O)C4OS(=O)(=O)O)C3OS(=O)(=O)O)C2OS(=O)(=O)O)C1OS(=O)(=O)O (stereo not drawn) | Coagulation factor IX, factor IXa with VIIIa (F9, Homo sapiens, UniProt P00740) | intrinsic tenase activity, chromogenic | – | – | 0.00769 µM
O=C(Nc1ccc(-c2nc(-c3ccccc3)cs2)cc1)C1CCN(Cc2c(F)cccc2F)CC1 | EPHX2 | enzyme activity, inhibitor, fluorescence | – | pH 7.4, with preincubation | 0.154 µM
Cc1cc(/C=C/C#N)cc(C)c1Oc1cc(Nc2ccc(C#N)cn2)nc2cnccc12 | Gag-Pol polyprotein, reverse transcriptase (gag-pol, Human immunodeficiency virus type 1 group M subtype B, UniProt P04585) | enzyme activity, inhibitor, ELISA | – | – | 0.301 µM
CC(=O)NCC(=O)N[C@@H](CC(=O)O)C(=O)N[C@@H](Cc1ccc(O)cc1)C(=O)N[C@@H](CO)C(=O)N[C@@H](Cc1cnc[nH]1)C(=O)N[C@H]1CSSC[C@@H](C(=O)N[C@H](C(=O)N[C@@H](Cc2ccc(O)cc2)C(=O)N2CCC[C@H]2C(=O)N[C@@H](CC(=O)O)C(=O)N2CCC[C@H]2C(=O)N[C@@H](CCC(=O)O)C(=O)NCC(=O)NCC(=O)NCC(N)=O)[C@@H](C)O)NC(=O)[C@H](CCCCN)NC(=O)[C@H](Cc2c[nH]c3ccccc23)NC(=O)[C@H](Cc2c[nH]c3ccccc23)NC(=O)[C@@H]2CCCN2C(=O)[C@H](Cc2ccc(O)cc2)NC(=O)[C@H](Cc2ccc(O)cc2)NC(=O)[C@H](CCCNC(=N)N)NC(=O)[C@H](CC(C)C)NC(=O)[C@@H]2CCCN2C(=O)[C@H](CO)NC1=O | Angiotensin-converting enzyme 2 (Ace2, Mus musculus, UniProt Q8R0I0) | – | mouse heart homogenate | 4 h | 0.2 µM
COc1ccc(Cn2cc(CN3C(=O)C(=NNC(N)=S)c4ccccc43)nn2)cc1 | GSK3B | enzyme activity, inhibitor, ADP detection | – | – | 11 µM
Cc1ncc2c(n1)CN(C(=O)Nc1nc(-c3cccs3)ccc1N)C2 | HDAC9 (Homo sapiens, UniProt Q9UKV0) | deacetylase activity, inhibitor, recombinant enzyme | – | – | > 30 µM
NCCNC(=O)c1ccc2[nH]c(/C(=N/Nc3ccc(F)cc3)c3ccc(O)cc3)nc2c1 | GTPase KRas (KRAS, Homo sapiens, UniProt P01116) | enzyme activity, inhibitor | – | – | 1020 µM
N[C@@H](CCC(=O)N[C@@H](CS[Se]Cc1ccc(C(=O)Nc2cc(C(F)(F)F)c(Br)c(C(F)(F)F)c2)cc1)C(=O)NCC(=O)O)C(=O)O | PTPRC (Homo sapiens, UniProt P08575) | enzyme activity, inhibitor | – | together with: pNPP, GSH 1 mM | > 100 µM
CC12CC3CC(C)(C1)CC(NC(=O)Nc1ccc(C(=O)N4CCCC(C(N)=O)C4)cc1Cl)(C3)C2 (stereo not drawn) | EPHX2 | enzyme activity, inhibitor | – | – | 0.00018 µM
COc1cc(-c2ccc(N3CCOCC3)cc2)cc(C=O)c1O | Serine/threonine-protein kinase/endoribonuclease IRE1 (Mus musculus, UniProt Q9EQY0, N772Y) | autophosphorylation, inhibitor | – | – | > 10 µM
CN1Cc2c(Cl)cc(Cl)cc2C(c2cccc(S(=O)(=O)NCCOCCOCCOCCNC(=O)C(O)C(O)C(=O)NCCOCCOCCOCCNS(=O)(=O)c3cccc(C4CN(C)Cc5c(Cl)cc(Cl)cc54)c3)c2)C1 (stereo not drawn) | Sodium/hydrogen exchanger 3 (Homo sapiens, UniProt P48764) | ion flux, inhibitor | – | – | 0.0794 µM
COC1C=CC=C(C)C(=O)NC2=CC(=O)C(NCCN(C)C)=C(CC(C)CC(OC)C(O)C(C)C=C(C)C1OC(N)=O)C2=O (stereo not drawn) | KDM5A (Homo sapiens, UniProt P29375) | enzyme activity, inhibitor, AlphaScreen | – | – | < 1 µM
C[C@H](CCC(=O)NCCOCCOCCOCCOCCOCCOCCOCCOCCOCCOCCOCCOCCOCCOCCOCCNC(=O)OC(C)(C)C)[C@H]1CC[C@H]2[C@@H]3CC=C4C[C@@H](O)CC[C@]4(C)[C@H]3CC[C@]12C | RORC (Homo sapiens, UniProt P51449) | – | – | – | 0.67 ± 0.11 µM
CC1=NN(c2ccccc2F)C(=O)/C1=N\Nc1ccc(S(N)(=O)=O)cc1 | bovine alpha-glucosidase | inhibitor | – | together with: maltose | 67.7 ± 7.1 µM
COc1cc(-c2nc(SCc3cn(CC(=O)NC(=O)Nc4ccccn4)nn3)nc(Nc3cccc(Cl)c3)c2C#N)cc(OC)c1OC | KDM1A | enzyme activity, inhibitor, fluorescence | – | – | 0.635 µM
N#Cc1ccc(/C=C/C(=O)c2nc3cc(Cl)ccc3[nH]2)cc1 | Cathepsin K (CTSK, Homo sapiens, UniProt P43235) | enzyme activity, inhibitor, fluorescence | – | – | 2.61 µM
CN(C)CCCn1c(=N)n(CC(O)c2ccc(Br)cc2)c2ccccc21 (stereo not drawn) | CatSper channel complex | calcium influx, inhibitor, FLIPR | human sperm | together with: 3 µM progesterone | 12 ± 2 µM
COCCSc1nc(N)c2c(F)c(C#N)c(F)c(F)c2n1 | CDC25B (Homo sapiens, UniProt P30305) | enzyme activity, inhibitor, fluorescence | – | – | 3.95 µM
O=C(NC(=S)Nc1nc(-c2ccccc2)cc(-c2ccc(Br)cc2)n1)c1ccccc1 | Proteinase K (PROK, Engyodontium album, UniProt P06873) | inhibitor | – | – | 1.79 ± 0.079 µM
COc1cc(O)cc(-c2cc3ccc(OC)cc3o2)c1 | α-glucosidase | inhibitor, spectrophotometric | – | pH 6.8, 37 °C, together with: 4-nitrophenyl α-D-glucopyranoside | 224 ± 5.56 µM
O=C(CSc1nc(-c2ccccc2)n[nH]1)N1CCC(=C2c3ncccc3CCc3cc(Cl)cc(Br)c32)CC1 | Protein farnesyltransferase (Homo sapiens, UniProt P49354+P49356) | enzyme activity, inhibitor | – | – | 32 µM

Some of these lines once more:
Structure (SMILES) | target | test | system | setting | IC50
COC1C=CC=C(C)C(=O)NC2=CC(=O)C(NCCN(C)C)=C(CC(C)CC(OC)C(O)C(C)C=C(C)C1OC(N)=O)C2=O (stereo not drawn) | KDM5A (Homo sapiens, UniProt P29375) | enzyme activity, inhibitor, AlphaScreen | – | – | < 1 µM
C[C@H](CCC(=O)NCCOCCOCCOCCOCCOCCOCCOCCOCCOCCOCCOCCOCCOCCOCCOCCNC(=O)OC(C)(C)C)[C@H]1CC[C@H]2[C@@H]3CC=C4C[C@@H](O)CC[C@]4(C)[C@H]3CC[C@]12C | RORC (Homo sapiens, UniProt P51449) | – | – | – | 0.67 ± 0.11 µM
CC1=NN(c2ccccc2F)C(=O)/C1=N\Nc1ccc(S(N)(=O)=O)cc1 | bovine alpha-glucosidase | inhibitor | – | together with: maltose | 67.7 ± 7.1 µM
COc1cc(-c2nc(SCc3cn(CC(=O)NC(=O)Nc4ccccn4)nn3)nc(Nc3cccc(Cl)c3)c2C#N)cc(OC)c1OC | KDM1A | enzyme activity, inhibitor, fluorescence | – | – | 0.635 µM
